Measurements of several laboratories.
Numbers after ± are the reported error.

SMILES | assay | system | setting | how to read | measurement | value
NC(=O)c1cccc(-c2cc(OC(=O)NC3CCCCC3)ccc2O)c1 |  | mouse | oral, 10 mg/kg |  | elimination half-life | 348 min
O=C(O)CCC(CP(=O)(O)O)C(=O)O (centres unmarked) |  | rat plasma | 4 µg/mL, freeze-thaw cycle 3 at -80 °C |  | measured concentration | 3.89 ± 0.19 µg/mL
N=C(N)NCCC[C@@H](NC(=O)[C@@H](N)Cc1ccccc1)C(=O)N[C@@H](Cc1ccccc1)C(=O)N[C@@H](CCCCN)C(N)=O | LC-MS | human | 5 mg, 5.833 h |  | median amount excreted in urine | 1.02e+06 ng
CN1CCN(c2ccc(Nc3nccc(-c4ccc(C#N)cc4)n3)cc2C(F)(F)F)CC1 |  | Danio rerio embryos | 5 µM, 5 d |  | toxicity | 0%
Clc1ccc(Cl)c(-c2ccccc2Cl)c1 |  | fresh water | 20 °C, S30-1 sampler, 30 µm |  | log K(PDMS-water) | 4.99 ± 0.05
C=CCNc1c(O)cc2c(O)c1C[C@@H](C)C[C@H](OC)[C@H](O)[C@@H](C)/C=C(\C)[C@H](OC(N)=O)[C@@H](OC)/C=C\C=C(/C)C(=O)N2 |  | unresectable or metastatic sarcoma | intravenous, 150 mg/m^2, grade 3-4 lab change |  | patients with ALT increase | 0%
COc1cc2c(Oc3ccc4[nH]c(C)cc4c3F)ccnc2cc1OCC1(N)CC1 |  | paediatric recurrent refractory sarcoma | 12 mg |  | grade 3 Hyperuricemia | 0%
CCCSc1ccc2nc(NC(=O)OC)[nH]c2c1 |  | mouse, blood | oral, 50 mg/kg, tolerability, mean |  | haematocrit | 39.8%
CC(=O)c1c(C)c2cnc(Nc3ccc(C4CCN(CCS(C)(=O)=O)CC4)cn3)nc2n(C2CCCC2)c1=O |  | mice plasma |  |  | unbound fraction | 0.023
COc1ccc(-c2c(-c3ccc(C#N)c(F)c3)nc(N3CCC(N)CC3)n(C)c2=O)cc1F | item: Dyspnea | human patients | oral, 60 mg, dose expansion |  | serious adverse event incidence | 0%
CC(C)n1c(C2CCNCC2)nc2c([N+](=O)[O-])c(Br)c(Br)cc21 |  | patients with AML | 125 mg, systemic infection |  | AE leading to interruption | 2%
COc1ccnc(C(=O)N[C@H]2COC(=O)[C@H](Cc3ccccc3)[C@@H](OC(=O)C(C)C)[C@H](C)OC2=O)c1OCOC(=O)C(C)C |  | bovine milk | -18 °C |  | storage stability of residues | 9 months
CC(C)[C@@H]1NC(=O)CNC(=O)[C@H](CC(N)=O)NC(=O)[C@H](CCCNC(=N)N)NC(=O)[C@H](Cc2ccc(O)cc2)NC(=O)[C@H](C(C)C)NC(=O)[C@@H](NC(=O)[C@@H](NC(=O)[C@H](CC(N)=O)NC(=O)[C@H](Cc2c[nH]c3ccccc23)NC(=O)[C@H](C)NC(=O)[C@H](Cc2ccccc2)NC(=O)CN)C(C)C)CSSC[C@@H](C(=O)N[C@@H](Cc2cnc[nH]2)C(=O)N[C@@H](CCCNC(=N)N)C(=O)N[C@@H](CCCNC(=N)N)C(=O)N[C@@H](C)C(=O)N[C@@H](CC(N)=O)C(N)=O)NC(=O)[C@H](C(C)C)NC(=O)[C@H](CCCNC(=N)N)NC1=O |  | ICR mouse, blood | intramammary, 5 mg/kg, day 5, 3 d dosing |  | haematocrit | 41.1 ± 0.64%
O=S(=O)([O-])C(F)(F)C(F)(F)C(F)(F)C(F)(F)C(F)(F)C(F)(F)C(F)(F)C(F)(F)F.[K+] | LC-ESI-MS/MS | mouse, EtOH-fed or pair-fed, liver | oral gavage, 1 mg/kg/day, 10 days | reference: dose | fraction of dose in liver | ~60%
C[C@]1(CO)Cc2ncn(-c3ccc(C#N)c(Cl)c3)c2C(=O)O1 |  | Japanese subjects | 3 mg single dose |  | drug-related orthostatic hypotension incidence | 0%
C[C@@H](NC(=O)N1C(=O)[C@H](Cc2ccnc(N)c2)[C@H]1C(=O)O)C1CCCCC1 |  | healthy Chinese adults | continuous intravenous infusion, 1.5 mg/kg/h, 5.0 days |  | decreased WBC | 0%
O=C(Nc1ccccc1)C1CCN(C(=O)Oc2cccnc2)CC1 | Bond-Lader VAS | healthy women | 100 mg | reference: pre-dose baseline, direction not given | change in Alert-Drowsy score | -18
CN[C@H]1CC[C@@H](c2ccc(Cl)c(Cl)c2)c2ccccc21 |  | CD-1 mouse, male, plasma | intraperitoneal, 10 mg/kg |  | Tmax | 0.5 h
CC(C)CC(=O)OC[C@H]1O[C@@](C#N)(c2ccc3c(N)ncnn23)[C@H](O)[C@@H]1O |  | Sprague-Dawley rat, both sexes, faeces | 80 mg/kg, time not given | reference: dose | recovery in faeces | 0.0637%

SMILES | assay | system | setting | how to read | measurement | value
C=CC(=O)Nc1cc(Nc2nccc(Nc3cc(Cl)c(F)cc3C(C)(C)O)n2)c(OC)cc1N1CC[C@@H](N(C)C)C1 |  | human | oral, dose not given |  | lipase increased TEAE | 12.7%
COc1ccc2c(c1)CN(C(=O)CCN1CCC(Cc3ccccc3)CC1)CC[S@@+]2[O-] |  | female Beagle dogs, chronic AV block, plasma | intravenous, 3 mg/kg, end of 10 min infusion |  | plasma concentration | 2140 ± 273 ng/mL
CCN1[C@@H](C(=O)NC23CCC(C(=O)O)(CC2)CC3)[C@H](c2cccc(Cl)c2F)[C@]2(C(=O)Nc3cc(Cl)ccc32)C12CCCCC2 |  | patients with advanced solid tumours | oral, 150 mg |  | Embolism incidence | 0%
NCCCC[C@@H]1NC(=O)[C@@H](Cc2c[nH]c3ccccc23)NC(=O)[C@H](c2ccccc2)NC(=O)[C@@H]2C[C@@H](OC(=O)NCCN)CN2C(=O)[C@H](Cc2ccccc2)NC(=O)[C@H](Cc2ccc(OCc3ccccc3)cc2)NC1=O |  | healthy volunteers, female | 600 µg twice daily, 0.0 h, post hoc |  | placebo-corrected QTcF change | 3.6 ms
C[C@]1(O)C[C@@](N)(c2ccc(-c3nc4n(c3-c3ccccc3)COc3ccncc3-4)cc2)C1 |  | human, advanced or metastatic solid tumours | 16 mg once daily, phase I dose escalation |  | patients with grade ≥3 TEAE | 66.7%
Clc1ccc(Cl)c(-c2cccc(Cl)c2Cl)c1 |  | PDMS-water partitioning | PCB compilation | reference: maximum over minimum K | literature range factor | 2
CC(C)C[C@@H]1NC(=O)CNC(=O)[C@H](CC(N)=O)NC(=O)[C@H](CCCNC(=N)N)NC(=O)[C@H]([C@@H](C)O)NC(=O)[C@@H]2CSSC[C@@H]3NC(=O)[C@H]([C@@H](C)O)NC(=O)CNC(=O)CNC(=O)[C@H](C(C)C)NC(=O)[C@@H]4CSSC[C@H](NC(=O)[C@H]([C@@H](C)O)NC(=O)[C@H](CSSC[C@H](NC(=O)[C@H](C(C)C)NC(=O)[C@@H]5CCCN5C1=O)C(=O)NCC(=O)N[C@@H](CCCCN)C(=O)N[C@@H]([C@@H](C)O)C(=O)N4)NC(=O)CNC(=O)[C@@H]1CCCN1C(=O)[C@H]([C@@H](C)O)NC(=O)[C@H](CC(N)=O)NC3=O)C(=O)N[C@@H](CO)C(=O)N[C@@H](Cc1c[nH]c3ccccc13)C(=O)N1CCC[C@H]1C(=O)N[C@@H](C(C)C)C(=O)N2 | HPLC | ammonium bicarbonate | 180 µM, 14 days, pH 9.0, 25 °C, deamidation stability |  | remaining peptide | 63.9 ± 0.5%
CO[C@H]1C[C@@H]2CC[C@@H](C)[C@@](O)(O2)C(=O)C(=O)N2CCCC[C@H]2C(=O)O[C@H]([C@H](C)C[C@@H]2CC[C@@H](OC(=O)NCCOCCOCCOCCOCCOCCOCCOCCOCCC(=O)N3CCc4cc(Cn5nc(-c6ccc7oc(N)nc7c6)c6c(N)ncnc65)ccc4C3)[C@H](OC)C2)C[C@@H](O)[C@H](C)/C=C(\C)[C@@H](O)[C@@H](OC)C(=O)[C@H](C)C[C@H](C)/C=C/C=C/C=C/1C |  | patients with advanced solid tumours | intravenous, 12 mg weekly, any grade |  | anaemia incidence | 8.3%
CC(C)C[C@@H]1NC(=O)CNC(=O)[C@H](CC(N)=O)NC(=O)[C@H](CCCNC(=N)N)NC(=O)[C@H]([C@@H](C)O)NC(=O)[C@@H]2CSSC[C@@H]3NC(=O)[C@H]([C@@H](C)O)NC(=O)CNC(=O)CNC(=O)[C@H](C(C)C)NC(=O)[C@@H]4CSSC[C@H](NC(=O)[C@H]([C@@H](C)O)NC(=O)[C@H](CSSC[C@H](NC(=O)[C@H](C(C)C)NC(=O)[C@@H]5CCCN5C1=O)C(=O)NCC(=O)N[C@@H](CCC(=O)O)C(=O)N[C@@H]([C@@H](C)O)C(=O)N4)NC(=O)CNC(=O)[C@@H]1CCCN1C(=O)[C@H]([C@@H](C)O)NC(=O)[C@H](CCCCN)NC3=O)C(=O)N[C@@H](CO)C(=O)N[C@@H](Cc1c[nH]c3ccccc13)C(=O)N1CCC[C@H]1C(=O)N[C@@H](C(C)C)C(=O)N2 | HPLC | ammonium bicarbonate 0.1 M | 180 µM, 7 days, pH 9.0, 37 °C, deamidation stability |  | remaining peptide | 76.8 ± 4.1%
c1ccc2c(c1)ccc1c3ccccc3ccc21 |  | fresh water | 12 (unit not given), 20 °C |  | log K(PDMS-water) | 4.72 ± 0.03
CCc1ccc(CC/C=C/c2ccc3c(c2)C(=O)CC3)cc1 |  | Sprague-Dawley rat, male | oral, 450 mg/kg/day, 14 days |  | Mononuclear percentage | 3%
O=C(O)CCCOc1ccc(F)cc1-c1cc(-c2ccccc2C(F)(F)F)n(-c2ccccc2)n1 | item: T-Bil | Crl:CD(SD) rats, female, blood | iv, 25 µg/kg, 1 day |  | blood chemistry | 0.12 ± 0.01 mg/dL
Cn1cc(-c2nc(N[C@@H]3CCCC[C@@H]3N)c(F)c3c2C(=O)NC3)cn1 | item: Mouth haemorrhage | patients with relapsed or refractory AML | oral, 80 mg twice daily |  | hemorrhagic adverse events | 17%
O[C@H]1CCCN[C@@H]1CCCn1cnc2c(Cl)c(Cl)ccc21 |  | healthy CYP2D6 intermediate metabolizers, plasma | oral, dose not given, added: pirfenidone |  | AUClast geometric LS mean | 1880 ng·h/mL
Cc1c(COC(=O)[C@@H]2[C@H](/C=C(\Cl)C(F)(F)F)C2(C)C)cccc1-c1ccccc1 (racemic) | item: CYP2C9 | human, age 1 year, recombinant human CYP2C9 | 0.1 µM |  | enzyme contribution to clearance | 22.1%
C[C@@H]1OC(=O)NN=C1c1ccc(-c2ccc(F)cc2)c(C(F)(F)F)c1 | phase I trial, item: Diarrhoea all grades | human patients | 10 mg loading then 0.5 mg daily |  | patients with adverse event | 100%
CC/C(=C(\c1ccccc1)c1ccc(OCCN(C)C)cc1)c1ccccc1 |  | CD-1 mouse, male, plasma | intraperitoneal, 30 mg/kg |  | Tmax | 6 h
c1ccc2c(c1)cc1ccc3cccc4ccc2c1c34 |  | PDMS-water partitioning | PAH compilation |  | literature range of log K | 4.9 to 5.96 log units
Cc1ccc(F)c2cc(C(=O)N[C@@H]3CCC[C@H](N4CC[C@H](N(C)S(C)(=O)=O)C4)C3)[nH]c12 |  | CD1 mouse, plasma | oral, 30 mg/kg, 10 h |  | plasma concentration | 17.9 ng/mL
